Assay results from different studies.
Every numbered part comes from another study and shows a few of its results, in no order. Values joined by “and” are separate records of one study, mostly repeats; a detail may differ.
Sequence of UniProt Q56UN5 (whole entry, looked up): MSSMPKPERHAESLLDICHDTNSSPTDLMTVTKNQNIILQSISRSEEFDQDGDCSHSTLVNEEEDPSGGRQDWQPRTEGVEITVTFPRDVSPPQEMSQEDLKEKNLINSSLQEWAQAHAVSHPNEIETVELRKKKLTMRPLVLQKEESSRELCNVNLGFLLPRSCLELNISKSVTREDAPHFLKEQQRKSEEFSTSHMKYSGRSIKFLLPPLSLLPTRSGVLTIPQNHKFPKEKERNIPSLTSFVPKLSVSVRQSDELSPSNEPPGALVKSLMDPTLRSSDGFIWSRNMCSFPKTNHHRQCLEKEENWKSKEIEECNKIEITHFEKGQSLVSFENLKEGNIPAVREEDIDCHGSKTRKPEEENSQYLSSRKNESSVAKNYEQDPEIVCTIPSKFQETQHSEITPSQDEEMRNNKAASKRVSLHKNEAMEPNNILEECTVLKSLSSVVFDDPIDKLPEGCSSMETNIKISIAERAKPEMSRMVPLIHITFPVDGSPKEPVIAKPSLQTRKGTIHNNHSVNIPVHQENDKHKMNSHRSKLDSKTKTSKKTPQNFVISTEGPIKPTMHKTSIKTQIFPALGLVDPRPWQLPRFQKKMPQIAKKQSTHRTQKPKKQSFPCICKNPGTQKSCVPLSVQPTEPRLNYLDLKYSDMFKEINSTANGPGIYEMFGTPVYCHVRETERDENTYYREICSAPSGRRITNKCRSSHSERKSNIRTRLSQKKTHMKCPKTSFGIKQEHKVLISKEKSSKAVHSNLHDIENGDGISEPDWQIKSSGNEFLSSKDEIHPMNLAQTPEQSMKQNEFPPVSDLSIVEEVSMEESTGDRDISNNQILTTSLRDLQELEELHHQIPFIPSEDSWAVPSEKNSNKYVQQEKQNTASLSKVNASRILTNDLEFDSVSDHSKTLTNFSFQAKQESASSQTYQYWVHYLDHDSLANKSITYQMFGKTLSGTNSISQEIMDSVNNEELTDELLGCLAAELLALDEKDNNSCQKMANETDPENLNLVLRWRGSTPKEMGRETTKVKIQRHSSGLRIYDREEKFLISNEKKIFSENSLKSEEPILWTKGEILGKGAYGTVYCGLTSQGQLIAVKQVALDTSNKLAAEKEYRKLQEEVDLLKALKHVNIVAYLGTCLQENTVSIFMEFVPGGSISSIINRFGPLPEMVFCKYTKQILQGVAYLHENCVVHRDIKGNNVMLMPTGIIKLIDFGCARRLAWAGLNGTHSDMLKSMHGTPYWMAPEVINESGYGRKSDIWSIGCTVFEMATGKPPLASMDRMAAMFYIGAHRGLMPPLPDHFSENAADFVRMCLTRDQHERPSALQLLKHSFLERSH
Sequence of UniProt Q15759 (whole entry, looked up): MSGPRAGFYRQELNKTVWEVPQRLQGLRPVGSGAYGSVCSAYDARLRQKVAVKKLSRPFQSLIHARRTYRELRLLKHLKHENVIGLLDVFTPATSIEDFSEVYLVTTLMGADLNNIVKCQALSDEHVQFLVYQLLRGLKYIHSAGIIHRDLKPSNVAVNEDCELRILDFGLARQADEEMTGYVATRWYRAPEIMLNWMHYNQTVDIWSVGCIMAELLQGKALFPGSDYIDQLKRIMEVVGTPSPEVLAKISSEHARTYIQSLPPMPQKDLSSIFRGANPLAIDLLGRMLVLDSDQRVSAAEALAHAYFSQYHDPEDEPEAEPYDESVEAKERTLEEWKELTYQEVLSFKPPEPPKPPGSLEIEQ
Sequence of UniProt Q15349 (whole entry, looked up): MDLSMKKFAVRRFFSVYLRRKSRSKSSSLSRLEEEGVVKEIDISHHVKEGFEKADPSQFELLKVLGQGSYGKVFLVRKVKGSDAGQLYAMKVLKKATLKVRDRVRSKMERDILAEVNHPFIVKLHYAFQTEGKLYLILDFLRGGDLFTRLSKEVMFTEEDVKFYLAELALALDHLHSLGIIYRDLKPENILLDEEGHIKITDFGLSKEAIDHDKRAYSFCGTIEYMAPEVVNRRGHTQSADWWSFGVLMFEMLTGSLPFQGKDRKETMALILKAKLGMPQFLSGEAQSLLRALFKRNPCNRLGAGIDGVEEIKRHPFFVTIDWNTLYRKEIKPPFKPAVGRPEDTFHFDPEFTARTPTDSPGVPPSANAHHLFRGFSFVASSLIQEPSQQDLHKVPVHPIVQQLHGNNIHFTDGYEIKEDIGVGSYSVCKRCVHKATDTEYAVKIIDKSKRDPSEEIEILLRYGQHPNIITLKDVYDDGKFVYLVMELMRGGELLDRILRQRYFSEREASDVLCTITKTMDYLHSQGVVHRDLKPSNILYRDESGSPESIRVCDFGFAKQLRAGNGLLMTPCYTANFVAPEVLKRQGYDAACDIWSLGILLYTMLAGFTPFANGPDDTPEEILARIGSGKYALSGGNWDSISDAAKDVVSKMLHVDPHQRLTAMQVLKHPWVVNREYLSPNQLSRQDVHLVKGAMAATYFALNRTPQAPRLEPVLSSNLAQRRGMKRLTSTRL
Sequence of UniProt O00329 (whole entry, looked up): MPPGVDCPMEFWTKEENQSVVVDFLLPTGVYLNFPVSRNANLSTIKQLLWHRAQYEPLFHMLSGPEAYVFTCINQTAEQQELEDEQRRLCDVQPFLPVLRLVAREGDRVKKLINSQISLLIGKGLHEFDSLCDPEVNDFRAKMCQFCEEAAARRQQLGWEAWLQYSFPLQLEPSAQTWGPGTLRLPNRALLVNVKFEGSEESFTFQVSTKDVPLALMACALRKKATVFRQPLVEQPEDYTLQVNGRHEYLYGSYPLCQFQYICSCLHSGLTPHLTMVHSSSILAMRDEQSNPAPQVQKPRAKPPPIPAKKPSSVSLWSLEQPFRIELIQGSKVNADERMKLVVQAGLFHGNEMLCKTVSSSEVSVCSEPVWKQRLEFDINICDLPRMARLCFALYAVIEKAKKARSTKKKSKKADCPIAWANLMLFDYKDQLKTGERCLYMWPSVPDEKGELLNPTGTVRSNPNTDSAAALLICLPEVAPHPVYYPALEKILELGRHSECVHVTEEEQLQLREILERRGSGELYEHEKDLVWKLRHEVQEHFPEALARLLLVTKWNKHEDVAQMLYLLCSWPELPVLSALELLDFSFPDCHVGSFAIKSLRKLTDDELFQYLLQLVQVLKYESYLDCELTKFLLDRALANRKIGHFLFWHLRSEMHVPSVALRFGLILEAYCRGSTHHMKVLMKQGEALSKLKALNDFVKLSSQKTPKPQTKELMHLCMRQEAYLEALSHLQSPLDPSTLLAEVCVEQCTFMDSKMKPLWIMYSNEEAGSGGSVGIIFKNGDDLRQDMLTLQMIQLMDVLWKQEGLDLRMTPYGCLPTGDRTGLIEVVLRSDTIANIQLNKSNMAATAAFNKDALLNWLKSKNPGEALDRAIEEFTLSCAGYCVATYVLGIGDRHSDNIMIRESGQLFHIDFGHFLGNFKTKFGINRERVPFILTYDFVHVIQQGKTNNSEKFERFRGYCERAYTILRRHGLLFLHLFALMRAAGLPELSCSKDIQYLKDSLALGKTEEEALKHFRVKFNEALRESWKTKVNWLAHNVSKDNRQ

Set 1 — method: phase 2a trial; host: idiopathic pulmonary fibrosis patients
SMILES: CC(C)n1cnc(-c2ccc(F)cc2)c1-c1ncc(C(=O)Nc2ccc(N3CCN(C)CC3)cc2)[nH]1
The “patients with paronychia” was 0% (all arms pooled, grade 4 emergent event).
It gave 0% for “patients with paronychia” (all arms pooled, grade 3 emergent event).
For 30 mg once daily, grade 5 emergent event: “patients with paronychia” read 0%.
60 mg once daily, grade 1 emergent event — “patients with paronychia”: 0%.

Set 2 — method: competition with immobilised ligand; concentration: 1 µM
SMILES: Cc1c(C(=O)O)cc(-c2ccc(C3CCNCC3)cc2)c2ccc(-c3ccc(C(F)(F)F)cc3)cc12
For CILK1 (Homo sapiens, UniProt Q9UPZ9); binding: remaining binding read 100%.
The remaining binding was 100% (PRKCD (Homo sapiens, UniProt Q05655); cell-free assay).
PIK3CD (Homo sapiens, UniProt O00329); cell-free assay — remaining binding: 100%.
For IRAK1 (Homo sapiens, UniProt P51617); binding: remaining binding read 100%.
It gave 100% for remaining binding (MAP3K19 (Homo sapiens, UniProt Q56UN5); binding).
For Tyrosine-protein kinase ABL1, phosphorylated (ABL1, Homo sapiens, UniProt P00519, T315I); binding: remaining binding read 100%.
It gave 100% for remaining binding (MAP2K3 (Homo sapiens, UniProt P46734); binding).
It gave 100% for remaining binding (Tyrosine-protein kinase JAK3, JH1 (JAK3, Homo sapiens, UniProt P52333); binding).
For CAMKK1 (Homo sapiens, UniProt Q8N5S9); binding: remaining binding read 100%.
It gave 100% for remaining binding (MAPK11 (Homo sapiens, UniProt Q15759); binding).
The remaining binding was 98% (PIP5K1C (Homo sapiens, UniProt O60331); binding).
The remaining binding was 99% (Tyrosine-protein kinase ABL1, phosphorylated (ABL1, Homo sapiens, UniProt P00519, H396P); binding).
The remaining binding was 100% (BUB1 (Homo sapiens, UniProt O43683); binding).
The remaining binding was 100% (Ribosomal protein S6 kinase alpha-2, C-terminal kinase domain (RPS6KA2, Homo sapiens, UniProt Q15349); binding).

Set 3 — method: RNA Bind-n-Seq; molecule type: RNA; matrix: in vitro; concentration: 1 µM; setting: whole 134-nt RNA, ends assumed; added: 150 mM KCl; relative to: input library; direction: higher = stronger binding
Target: Ras GTPase-activating protein-binding protein 1, RRM domain (G3BP1, Homo sapiens, UniProt Q13283)
Sequence of UniProt Q13283 (whole entry, looked up): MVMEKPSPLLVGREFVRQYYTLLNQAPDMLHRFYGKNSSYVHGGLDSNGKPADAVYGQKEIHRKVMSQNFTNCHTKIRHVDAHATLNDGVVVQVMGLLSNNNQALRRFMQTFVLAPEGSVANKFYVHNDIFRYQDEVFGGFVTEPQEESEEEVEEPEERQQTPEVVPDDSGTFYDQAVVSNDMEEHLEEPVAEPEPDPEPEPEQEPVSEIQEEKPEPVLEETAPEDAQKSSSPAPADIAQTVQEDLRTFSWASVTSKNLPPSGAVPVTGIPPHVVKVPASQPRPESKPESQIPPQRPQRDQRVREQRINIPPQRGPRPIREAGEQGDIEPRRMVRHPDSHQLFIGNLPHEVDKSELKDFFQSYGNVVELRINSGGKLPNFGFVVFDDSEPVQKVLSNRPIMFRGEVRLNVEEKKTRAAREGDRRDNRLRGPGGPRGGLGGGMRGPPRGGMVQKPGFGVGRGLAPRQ
Constant ends, left off below: GGGAGUUCUACAGUCCGACGAUC … UGGAAUUCUCGGGUGUCAAGG
`GCAGGAAGUAAAAACAAAUGGAAAUGCUUCGGAUAGUGGCAGGGGUGGGGGUUGCUAAGGAAAGGGUGGGAUGGGAGUCGGUAAAGAGUU` has a log2 enrichment of 1.29.
For `CCUCAAGUCCUGUGCUACACAUCGUAUGUACCGAAUCGGUGGGGUGGGUGGGGAAAGUAUUAUGUUACGCCGUUCGGAUCUGCACUUCCA`, the log2 enrichment was 0.298.
The log2 enrichment of `GCAGGAAGUAAAAACAAAUGGAAAUGCUUCGGAUACUGGCAGGGGUGGGGGUUGCUAAGGAAAGGGUGGGAUGGGAGUGGGUAAAGAGUU` is reported as 1.24.
`GCCUGGCGCUGGCCAACAAUAGCACCCUCACCAUUGGCACCAUCGAUGAGAUCCAGAAGCUGCACAUUCGCACAGUUCCCCUCUAUGAGU` gave a log2 enrichment of 0.424.
For `GUCCUGUGCUACACAUCGUAUGUACCGAAUCGGGGAAAAAGGGGAAAAAGGAAAAAGGAAAGUAUUAUGUUACGCCGUUCGGAUCUGCAC`, the log2 enrichment was 0.0988.
`UGGCCCUGGUGGCAUGCGGGGAGGAAGAGGUGGCCUCAUGGAUCGUGGUGGUCCCGGUGGAAUGUUCAGAGGUGGCCGUGGUGGAGACCG` gave a log2 enrichment of 1.18.
`GUCCUGUGCUACACAUCGUAUGUACCGAAUCGGGAAAAAGGGAAAAAGGGGAAAAAGGAAAGUAUUAUGUUACGCCGUUCGGAUCUGCAC` has a log2 enrichment of -0.0144.
With `CCUCAAGUCCUGUGCUACACAUCGUAUGUACCGAAUCGGAAGGGAAGGAAGGGAAAGUAUUAUGUUACGCCGUUCGGAUCUGCACUUCCA` the log2 enrichment was -0.337.

Set 4 — effect on: enzyme activity; action: inhibitor; concentration: 0.5 µM; relative to: control
Target: Protein-tyrosine kinase 2-beta (PTK2B, Homo sapiens, UniProt Q14289)
Sequence of UniProt Q14289 (whole entry, looked up): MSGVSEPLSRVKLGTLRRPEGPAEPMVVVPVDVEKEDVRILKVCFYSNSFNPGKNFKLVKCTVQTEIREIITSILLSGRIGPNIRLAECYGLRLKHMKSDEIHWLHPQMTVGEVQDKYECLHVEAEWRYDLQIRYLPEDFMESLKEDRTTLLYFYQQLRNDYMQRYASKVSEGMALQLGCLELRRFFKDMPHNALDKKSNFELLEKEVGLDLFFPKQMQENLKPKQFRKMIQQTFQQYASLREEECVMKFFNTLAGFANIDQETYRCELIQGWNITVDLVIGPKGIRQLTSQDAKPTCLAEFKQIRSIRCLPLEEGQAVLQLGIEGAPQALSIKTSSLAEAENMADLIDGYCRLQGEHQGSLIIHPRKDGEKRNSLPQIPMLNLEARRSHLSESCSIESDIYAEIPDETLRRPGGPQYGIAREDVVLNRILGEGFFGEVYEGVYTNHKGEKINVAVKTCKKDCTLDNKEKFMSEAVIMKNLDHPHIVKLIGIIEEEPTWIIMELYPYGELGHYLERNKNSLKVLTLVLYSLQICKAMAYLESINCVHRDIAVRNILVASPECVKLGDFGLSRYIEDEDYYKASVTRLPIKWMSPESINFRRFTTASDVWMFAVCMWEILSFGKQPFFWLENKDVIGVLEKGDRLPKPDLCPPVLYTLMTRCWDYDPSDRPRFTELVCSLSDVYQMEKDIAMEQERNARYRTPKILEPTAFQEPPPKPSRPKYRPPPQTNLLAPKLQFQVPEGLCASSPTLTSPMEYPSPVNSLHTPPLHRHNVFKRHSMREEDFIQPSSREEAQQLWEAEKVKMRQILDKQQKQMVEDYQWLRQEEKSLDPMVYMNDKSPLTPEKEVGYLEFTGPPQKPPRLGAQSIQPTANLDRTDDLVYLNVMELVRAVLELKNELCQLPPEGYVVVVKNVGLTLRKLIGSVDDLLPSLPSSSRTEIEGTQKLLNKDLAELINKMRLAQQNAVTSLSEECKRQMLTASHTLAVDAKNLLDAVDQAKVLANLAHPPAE
For `Cc1nc2cc3nc(-c4cccs4)cnc3cc2n1C`, the remaining activity was 96.4%.
With `O=C1C(Cl)=C(N2C(=O)CCC2=O)C(=O)c2ccccc21` the remaining activity was 105%.
`CCN(CC)CCNC(=O)c1c(C)[nH]c(/C=C2\C(=O)Nc3ccc(F)cc32)c1C` gave a remaining activity of 38.3%.
For `CCOc1nc(NC(=O)Cc2cc(OC)ccc2OC)cc(N)c1C#N`, the remaining activity was 108%.
With `COc1cc2ncnc(Nc3cccc(Cl)c3)c2cc1OC` the remaining activity was 85.3%.
`CN(C)C[C@H]1CCn2c(c(C3=C(c4cn(C)c5ccccc45)C(=O)NC3=O)c3ccccc32)C1` has a remaining activity of 95.5%.
`N#C/C(=C\c1ccc(O)c(O)c1)C(=O)NCc1ccccc1` gave a remaining activity of 92.6%.
`c1ccc(-c2cnc(Nc3ccc(OCCN4CCCC4)cc3)s2)cc1` has a remaining activity of 77.2%.
`Cn1nc2c3c(cccc31)C(=O)c1ccccc1-2` gave a remaining activity of 102%.
`Cc1cn(-c2cc(NC(=O)c3ccc(C)c(Nc4nccc(-c5cccnc5)n4)c3)cc(C(F)(F)F)c2)cn1` has a remaining activity of 94.5%.
With `O=c1cc(-c2cccc3c2Sc2ccccc2S3)oc(N2CCOCC2)c1` the remaining activity was 106%.
With `COc1cc2c(cc1OC)-c1[nH]nc(Nc3cccc(F)c3)c1C2` the remaining activity was 98%.
For `Ic1cccc(CSc2nnc(-c3ccncc3)o2)c1`, the remaining activity was 92.1%.
`CCN(CC)C(=O)c1ccc(Nc2nc(OCC3CCCCC3)c3[nH]cnc3n2)cc1` has a remaining activity of 48.7%.
The remaining activity of `c1ccc(-c2[nH]ncc2-c2ccnc3ccccc23)nc1` is reported as 96.1%.
For `O=C(Nc1cccc(Nc2nccc(Nc3cccc(C(F)(F)F)c3)n2)c1)C1CC1`, the remaining activity was 90.9%.
`CN([C@@H](Cc1ccc(OS(=O)(=O)c2cccc3cnccc23)cc1)C(=O)N1CCN(c2ccccc2)CC1)S(=O)(=O)c1cccc2cnccc12` has a remaining activity of 103%.
The remaining activity of `CCN(CC)CCNC(=O)c1c(C)[nH]c(/C=C2\C(=O)Nc3ccc(Cl)cc32)c1C` is reported as 30.5%.
For `COc1cc2ncnc(Nc3ccc(O)c(Br)c3)c2cc1OC`, the remaining activity was 86.9%.
`Cc1cc2ncc(-c3ccccc3)nc2cc1C` gave a remaining activity of 92.1%.
For `O=C1c2ccccc2-c2n[nH]c3cccc1c23`, the remaining activity was 82.2%.
`Nc1cccc(-c2cc3c(Oc4cccc(O)c4)ncnc3[nH]2)c1` has a remaining activity of 65.6%.
The remaining activity of `N#Cc1c(NC(=O)c2cccc3ccccc23)sc2c1CCCC2` is reported as 108%.

Mixed results
`CCOc1ccc(Nc2c3c(nc4ccccc24)CCC3)cc1` gave a cytotoxicity of 2% and 1% (HepG2; resazurin; 0.0332 µM, 48 h).

For quick reference, copied from above (set 4):
For `Cc1nc2cc3nc(-c4cccs4)cnc3cc2n1C`, the remaining activity was 96.4%.
With `O=C1C(Cl)=C(N2C(=O)CCC2=O)C(=O)c2ccccc21` the remaining activity was 105%.
`CCN(CC)CCNC(=O)c1c(C)[nH]c(/C=C2\C(=O)Nc3ccc(F)cc32)c1C` gave a remaining activity of 38.3%.
For `CCOc1nc(NC(=O)Cc2cc(OC)ccc2OC)cc(N)c1C#N`, the remaining activity was 108%.
With `COc1cc2ncnc(Nc3cccc(Cl)c3)c2cc1OC` the remaining activity was 85.3%.
`CN(C)C[C@H]1CCn2c(c(C3=C(c4cn(C)c5ccccc45)C(=O)NC3=O)c3ccccc32)C1` has a remaining activity of 95.5%.
